Measurements pooled from the literature.
Compare with care: the assays were run in different laboratories. ± gives the spread as reported.
Organism: Salmonella typhimurium

CN(CC(C)(C)C)N=O  revertant colonies per plate (mutagenicity, Ames plate incorporation; TA1535; 1500 µg/plate, without S9, methanol): 25.7 ± 7
COc1cccc(-c2n[nH]c(SCc3ccccn3)n2)c1OC  revertant colonies per plate (Ames test, plate incorporation; TA98; 0.13 mg/plate, with rat liver S9): 34
Cc1cc(C(=O)NC(C)(C)COc2cccc3c2C(N)=NS(=O)(=O)N3)cc(C)n1  revertant ratio (Ames test, confirmatory; TA100; 333 µg/plate, with: rat liver S9; relative to: solvent control): 0.9
O=[N+]([O-])c1ccc(NC2CCNCC2)c(C(F)(F)F)c1  induction factor (genotoxicity, SOS/umu test; TA1535/pSK1002; 1 mg/mL, 4 h, without S9, full range): 2.3
CC(C)N(N=O)C(C)C  revertant colonies per plate (mutagenicity, Ames plate incorporation; TA98; 500 µg/plate, without S9, methanol): 39 ± 8
N#C[C@@]1(n2ccc(N)nc2=O)O[C@H](CO)[C@@H](O)[C@H]1O  viability (TA100; 5 µM, without S9, unit not given; relative to: control): 104
Fc1ccc(C2=CCNCC2)cc1  induction factor (genotoxicity, SOS/umu test; TA1535/pSK1002; 0.25 mg/mL, 4 h, without S9, full range): 0.9
CN(N=O)c1ccc(F)cc1  revertant colonies per plate (mutagenicity, Ames plate incorporation; TA1535; 150 µg/plate, 3 d, without S9, methanol): 14.7 ± 1
O=[N+]([O-])c1ccc(N2CCN(CCC(O)c3ccc(F)cc3)CC2)c(C(F)(F)F)c1 (stereo not drawn)  induction factor (genotoxicity, SOS/umu test; TA1535/pSK1002; 0.031 mg/mL, 4 h, without S9, full range): 1
COCCN(CCOC)N=O  revertant colonies per plate (mutagenicity, Ames plate incorporation; TA1537; 500 µg/plate, 3 d, without S9, methanol): 10.3 ± 6
OC(CCN1CC=C(c2ccc(F)cc2)CC1)c1ccc(F)c2ccccc12 (stereo not drawn)  induction factor (genotoxicity, SOS/umu test; TA1535/pSK1002; 0.125 mg/mL, 4 h, without S9, lower range): 0.3
CC(=O)N1CCC(C(=O)N2CCN3C(=O)c4cc(-c5ccccc5)ccc4NC(=O)C3C2)CC1 (stereo not drawn)  fold increase in revertants (TA98; 500 µg/plate; relative to: vehicle): 1.2

For quick reference, copied from above:
COc1cccc(-c2n[nH]c(SCc3ccccn3)n2)c1OC  revertant colonies per plate (Ames test, plate incorporation; TA98; 0.13 mg/plate, with rat liver S9): 34
